Results pooled from the literature.
Numbered parts are unrelated; each lists some results of a single study.

Set 1
Target: Histone acetyltransferase KAT6A, winged helix 2, GST fusion (KAT6A, Homo sapiens, UniProt Q92794, residues 85-181)
Technique: protein binding microarray
Molecule type: double-stranded DNA, one strand shown
Medium: in vitro
Tested at: not given
Notes: 8-mer, flanks averaged, mean of 2 arrays, mostly near background
Reference: not given
Reading: higher = stronger binding
Construct (chain): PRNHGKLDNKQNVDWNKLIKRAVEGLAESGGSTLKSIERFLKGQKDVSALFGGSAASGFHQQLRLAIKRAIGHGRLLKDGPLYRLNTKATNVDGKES
| Sequence | E-score |
| --- | --- |
| GATGTGCC | -0.023 |
| AGCCTAAA | 0.204 |
| CACTTAGA | 0.058 |
| CGATTGAG | -0.149 |
| CCAGGGGC | 0.0803 |
| AGCGGAAA | 0.0595 |
| AAATCTGA | 0.0281 |
| CGTGCCAG | 0.0111 |
| CCTCGAGC | 0.106 |

Set 2
Target: RNA binding protein fox-1 homolog 2, RRM domain, GST-SBP tag (RBFOX2, Homo sapiens, UniProt O43251-10, residues 100-194)
Technique: RNA Bind-n-Seq
Molecule type: RNA
Medium: in vitro
Tested at: 365 nM
Notes: natural RNA segment, single round, ends assumed
Reference: no-protein control
Reading: higher = stronger binding
Construct (chain): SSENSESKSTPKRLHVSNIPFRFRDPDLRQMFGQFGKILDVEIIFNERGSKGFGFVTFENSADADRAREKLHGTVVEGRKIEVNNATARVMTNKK
| Sequence | RBNS enrichment (R) |
| --- | --- |
| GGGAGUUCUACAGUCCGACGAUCGCACCACCGGGAUCUGUCCUGCAAAGUUGAAGGGAUCCUUUGGUGCCAGCUGGUGUUUGGAAGUAGGAACCAUGAUGGCAUUACCUGGACAAGGAGAUUGGGGACAACUCUGGAAUUCUCGGGUGCCAA | 0.37 |
| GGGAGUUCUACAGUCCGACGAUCCACCCCAAACAUCUUCAACAGCCGACUCUGGAUGACCUCGGGCCACUGGCAGCACUACAGCGAGAACAUGUUCUCCUUUGAGGUGGAGAAGGAGCUGUUUGCCCUGAAACUGGAAUUCUCGGGUGCCAA | 0.805 |
| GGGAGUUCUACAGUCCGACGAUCCCUCCCCCAUCGCCUCUUUCUCAUCCCUGAUUAACAGUGAAGUUUGAGUCUUGUCGUGAGUCCUACAGUGAGCACAGGCAGCUGGGGCUAAUAAAAAAAGAAGAAGAAGAUGGAAUUCUCGGGUGCCAA | 0.311 |
| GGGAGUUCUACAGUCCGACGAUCAUUUUGUCCUUUCUUCUCAUACUAAAGUGGAUCAUAGAAAAGUAAAAUAAAUUAUUUGAAAAAUGAAUCCUUAUGUCCUUCCCAUUAUUAUAGAGAAAAAUAGAAAGAUAUGGAAUUCUCGGGUGCCAA | 0.489 |
| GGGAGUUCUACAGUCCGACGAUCACUCUGGAGCCUCCGUCUCUUCGAUUAUAAAGACACCCGUCCUUAAGACAGCCGCUCCUUGGACACUCGGCUGGAAGUCUUUAGUGUGUUCCUCCAUACUACUGAAGCCCUGGAAUUCUCGGGUGCCAA | 0.495 |
| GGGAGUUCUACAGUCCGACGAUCAACCUGUGGGUCAUCCCCAGGCUGAAUGGAGUACACACUAGAAGAGGGAUGAUGCCUAGCAUUGGGGCAGCAUCUGCUCAGCACAUGGAAAGGGACCUGGUUCCAUCUCCUGGAAUUCUCGGGUGCCAA | 0.473 |
| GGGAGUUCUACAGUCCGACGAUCAGGGGUUUGCCCACUUUCCUCUUUUUGGGGUUGGUGAGAGGGCAAACCCUGAUAUUUUUACUGUGAAGGUGUUUUCAGUUGUUCUUAGGAAGAACAGCUGAUAGAAAUUCUGGAAUUCUCGGGUGCCAA | 0.311 |

Set 3
Target: Interferon regulatory factor 7, full length, phosphomimetic (IRF7, Homo sapiens, UniProt Q92985, residues 1-503, S471D/S472D/S475D/S476D/S477D/S483D/S484D/S487D)
Technique: protein-binding microarray
Molecule type: double-stranded DNA, one strand shown
Medium: in vitro
Tested at: 2200 nM top
Notes: 60-bp whole probe
Added: salmon DNA 0.4 mg/ml
Reference: random background probes
Reading: higher = stronger binding
All sequences stand within: GCCTAGCAC … GTCTTGATTCGCTTGACGCTGCTG
Target sequence (chain): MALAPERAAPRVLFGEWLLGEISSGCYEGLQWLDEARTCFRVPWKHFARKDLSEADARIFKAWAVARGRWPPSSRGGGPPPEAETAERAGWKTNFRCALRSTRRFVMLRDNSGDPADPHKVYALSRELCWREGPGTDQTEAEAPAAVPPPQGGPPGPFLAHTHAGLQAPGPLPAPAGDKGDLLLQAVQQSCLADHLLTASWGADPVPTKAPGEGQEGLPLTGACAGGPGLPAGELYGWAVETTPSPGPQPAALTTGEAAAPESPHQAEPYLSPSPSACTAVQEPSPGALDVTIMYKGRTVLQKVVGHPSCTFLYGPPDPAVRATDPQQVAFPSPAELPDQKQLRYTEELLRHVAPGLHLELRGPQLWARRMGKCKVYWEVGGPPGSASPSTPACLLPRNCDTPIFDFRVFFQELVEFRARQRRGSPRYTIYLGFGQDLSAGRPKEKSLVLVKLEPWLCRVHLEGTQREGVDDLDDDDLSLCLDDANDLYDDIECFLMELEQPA
| Sequence | fitted relative affinity [z-score] |
| --- | --- |
| GGCGATTCCAGTTTCGAGACGTGCTAG | 3.55 |
| GACGATATCGGGTATCGAGACGTGCTA | 0.0936 |
| TCAAGGTTCTCTTTTATACTGTGCTAG | 0.749 |
| CTGTGTACATCTCTCTTAAAGTGCTAG | 0.854 |
| TTAGATTTCGGACTGGGTTAGTGCTAG | 1.25 |
| TCATATGTACTCTCTCCAACTGTGCTA | 1.69 |
| CTAGAGATTTTTCTCAACCGGTGCTAG | -0.394 |
| TTAGGTCTCAGACTGGGTTAGTGCTAG | -0.312 |
| GACGGACTGGGGACTGGCGACGTGCTA | -0.82 |
| TACGGTTTCCTTTCCCTGACGTGCTAG | 4.94 |

Mixed results
| Molecule | target | test | test system | setting | how to read | endpoint | value |
| --- | --- | --- | --- | --- | --- | --- | --- |
| PhoQ, residues 284 288 289 292 302 303 TVTVVA | PhoP, residues 12 14 15 18 19 GHCSL (Escherichia coli, UniProt P23836) | Sort-seq, refers to: YFP reporter | E. coli | PhoQ-PhoP variant library, added: 10 µM Mg2+ | reference: high Mg2+ state, higher = stronger signaling | fold induction | 9.45 |

A few entries again (set 2):
| Sequence | RBNS enrichment (R) |
| --- | --- |
| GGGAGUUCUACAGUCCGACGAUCCACCCCAAACAUCUUCAACAGCCGACUCUGGAUGACCUCGGGCCACUGGCAGCACUACAGCGAGAACAUGUUCUCCUUUGAGGUGGAGAAGGAGCUGUUUGCCCUGAAACUGGAAUUCUCGGGUGCCAA | 0.805 |
| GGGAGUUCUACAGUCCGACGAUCGCACCACCGGGAUCUGUCCUGCAAAGUUGAAGGGAUCCUUUGGUGCCAGCUGGUGUUUGGAAGUAGGAACCAUGAUGGCAUUACCUGGACAAGGAGAUUGGGGACAACUCUGGAAUUCUCGGGUGCCAA | 0.37 |
| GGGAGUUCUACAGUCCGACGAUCACUCUGGAGCCUCCGUCUCUUCGAUUAUAAAGACACCCGUCCUUAAGACAGCCGCUCCUUGGACACUCGGCUGGAAGUCUUUAGUGUGUUCCUCCAUACUACUGAAGCCCUGGAAUUCUCGGGUGCCAA | 0.495 |
| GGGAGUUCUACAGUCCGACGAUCAACCUGUGGGUCAUCCCCAGGCUGAAUGGAGUACACACUAGAAGAGGGAUGAUGCCUAGCAUUGGGGCAGCAUCUGCUCAGCACAUGGAAAGGGACCUGGUUCCAUCUCCUGGAAUUCUCGGGUGCCAA | 0.473 |
